{"data": "Published values from different studies", "route": "oral"}
{"SMILES": "COc1ccc(-n2nc(C(N)=O)c3c2C(=O)N(c2ccc(N4CCCCC4=O)cc2)CC3)cc1", "system": "healthy Chinese subjects", "setting": "10 mg single and multiple", "measurement": "renal clearance", "value": "~20 mL/min"}
{"SMILES": "Nc1cc(F)ccc1NC(=O)c1ccc(CNC(=O)/C=C/c2cccnc2)cc1", "system": "Japanese patients, urine", "setting": "40 mg twice weekly, cycle 1 day 25", "measurement": "renal clearance", "value": "28.2 mL/min"}
{"SMILES": "CS(=O)(=O)n1cc2c(n1)CN([C@H]1CO[C@H](c3cc(F)ccc3F)[C@@H](N)C1)C2", "system": "healthy male", "setting": "10 mg single dose, fasted, geometric mean", "measurement": "renal clearance", "value": "30 mL/min"}
{"SMILES": "O=C(NC[C@H]1CN(c2ccc(N3CCOCC3=O)cc2)C(=O)O1)c1ccc(Cl)s1", "system": "mild renal impairment patients", "setting": "10 mg, arithmetic mean", "measurement": "renal clearance", "value": "23.3 mL/min"}
{"SMILES": "CC(C)(Sc1ccncc1-c1ccc(C#N)c2ccccc12)C(=O)O", "system": "healthy Japanese males", "setting": "2.5 mg once daily, day 12, fed, geometric mean", "measurement": "renal clearance (0-24 h)", "value": "21.8 mL/min"}
{"SMILES": "O=C(c1cccnc1-c1ccncc1)N1CCC(O)(Cc2ccccc2)CC1", "system": "healthy subjects, urine", "setting": "300 mg twice daily, day 1", "measurement": "renal clearance", "value": "5.83 mL/min"}
{"SMILES": "C[C@@H]1[C@H](c2c(F)ccc(F)c2F)C[C@H](NC(=O)c2cnc3c(c2)C[C@@]2(C3)C(=O)Nc3ncccc32)C(=O)N1CC(F)(F)F", "system": "healthy men", "setting": "50 mg", "measurement": "renal clearance", "value": "~20 mL/min"}
{"SMILES": "CC(C)(Sc1ccncc1-c1ccc(C#N)c2ccccc12)C(=O)O", "system": "male, urine", "setting": "15 mg, 72 h, moderate renal impairment", "measurement": "renal clearance", "value": "7.87 mL/min"}
{"note": "Repeated from above:"}
{"SMILES": "O=C(c1cccnc1-c1ccncc1)N1CCC(O)(Cc2ccccc2)CC1", "system": "healthy subjects, urine", "setting": "300 mg twice daily, day 1", "measurement": "renal clearance", "value": "5.83 mL/min"}
